Results from different studies.
A part holds a random share of what one study measured.
UniProt P50750, sequence (whole entry, looked up): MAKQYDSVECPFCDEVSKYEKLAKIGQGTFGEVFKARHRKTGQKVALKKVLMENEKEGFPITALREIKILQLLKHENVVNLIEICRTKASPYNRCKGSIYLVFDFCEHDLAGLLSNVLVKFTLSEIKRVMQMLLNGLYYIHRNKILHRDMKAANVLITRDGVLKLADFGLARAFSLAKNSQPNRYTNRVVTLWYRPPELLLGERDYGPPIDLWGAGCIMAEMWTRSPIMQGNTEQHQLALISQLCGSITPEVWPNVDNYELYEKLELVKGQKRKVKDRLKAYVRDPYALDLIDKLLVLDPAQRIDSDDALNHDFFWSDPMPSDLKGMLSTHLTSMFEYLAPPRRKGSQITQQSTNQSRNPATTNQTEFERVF
UniProt P49840, sequence (whole entry, looked up): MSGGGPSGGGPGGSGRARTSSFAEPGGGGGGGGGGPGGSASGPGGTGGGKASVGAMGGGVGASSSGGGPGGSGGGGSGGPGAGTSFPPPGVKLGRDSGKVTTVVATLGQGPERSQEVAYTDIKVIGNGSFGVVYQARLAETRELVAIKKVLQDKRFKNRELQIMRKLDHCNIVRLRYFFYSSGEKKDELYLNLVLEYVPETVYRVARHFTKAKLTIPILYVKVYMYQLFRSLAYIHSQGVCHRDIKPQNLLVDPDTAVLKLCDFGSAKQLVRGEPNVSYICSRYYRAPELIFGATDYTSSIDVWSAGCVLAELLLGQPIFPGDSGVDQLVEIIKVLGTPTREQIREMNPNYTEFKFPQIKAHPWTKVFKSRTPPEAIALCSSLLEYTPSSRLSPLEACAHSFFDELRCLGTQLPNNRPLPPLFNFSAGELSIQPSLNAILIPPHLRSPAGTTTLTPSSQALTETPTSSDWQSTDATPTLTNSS
UniProt P78368, sequence (whole entry, looked up): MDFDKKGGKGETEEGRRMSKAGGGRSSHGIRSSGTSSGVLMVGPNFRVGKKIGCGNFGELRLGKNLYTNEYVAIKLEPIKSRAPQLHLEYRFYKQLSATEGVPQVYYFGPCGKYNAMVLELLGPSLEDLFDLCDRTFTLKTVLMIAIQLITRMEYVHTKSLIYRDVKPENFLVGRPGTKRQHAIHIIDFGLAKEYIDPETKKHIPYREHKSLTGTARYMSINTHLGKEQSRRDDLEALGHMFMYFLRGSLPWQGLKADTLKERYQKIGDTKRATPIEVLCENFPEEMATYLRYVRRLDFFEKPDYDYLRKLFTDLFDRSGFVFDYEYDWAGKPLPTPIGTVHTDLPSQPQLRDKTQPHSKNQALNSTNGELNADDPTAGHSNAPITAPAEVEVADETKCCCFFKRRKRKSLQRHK

Study 1 — effect on: cell-free assay; technique: competition with immobilised ligand; concentration: 1 µM; endpoint: remaining binding
SMILES: COc1cccc(CNC(=O)c2nc3scc(COCc4ccc(C(=O)O)cc4)c3c(=O)[nH]2)c1
Casein kinase I isoform gamma-2 (CSNK1G2, Homo sapiens, UniProt P78368): 97.2%
Glycogen synthase kinase-3 alpha (GSK3A, Homo sapiens, UniProt P49840): 100%
Cyclin-dependent kinase 9 (CDK9, Homo sapiens, UniProt P50750): 78.6%
Tyrosine-protein kinase SYK (SYK, Homo sapiens, UniProt P43405): 100%

Study 2 — organism: Saccharomyces cerevisiae; effect on: binding; technique: competitive growth deep sequencing; molecule type: peptide; strain: cyclin D3-Cln2 fusion strain; setting: peptide tiling library; direction: direction not given; endpoint: enrichment score
SDSTVTKLDFDLEP: 1.09
ALLRRLQDVANDRGSH: 3.26
CFRCLLFSFSGRSGVE: -1.97
RDLFDCDFGDLTPLDF: 1.83
ISRLFPPRTPGWHQLQ: -2.81
MNQELLSVGSKRRRTG: -0.36
KPITLDTTDFQESFVT: 0.898
TSPGPVLLHPSPSTTQ: 0.909

Study 3 — technique: RNA Bind-n-Seq; molecule type: RNA; matrix: in vitro; concentration: 200 nM; setting: whole 134-nt RNA, ends assumed; with: 150 mM LiCl; baseline: input library; direction: higher = stronger binding; endpoint: log2 enrichment; library: 7-deaza-guanosine replaces G
Target: Ras GTPase-activating protein-binding protein 1, full length (G3BP1, Homo sapiens, UniProt Q13283)
UniProt Q13283, sequence (whole entry, looked up): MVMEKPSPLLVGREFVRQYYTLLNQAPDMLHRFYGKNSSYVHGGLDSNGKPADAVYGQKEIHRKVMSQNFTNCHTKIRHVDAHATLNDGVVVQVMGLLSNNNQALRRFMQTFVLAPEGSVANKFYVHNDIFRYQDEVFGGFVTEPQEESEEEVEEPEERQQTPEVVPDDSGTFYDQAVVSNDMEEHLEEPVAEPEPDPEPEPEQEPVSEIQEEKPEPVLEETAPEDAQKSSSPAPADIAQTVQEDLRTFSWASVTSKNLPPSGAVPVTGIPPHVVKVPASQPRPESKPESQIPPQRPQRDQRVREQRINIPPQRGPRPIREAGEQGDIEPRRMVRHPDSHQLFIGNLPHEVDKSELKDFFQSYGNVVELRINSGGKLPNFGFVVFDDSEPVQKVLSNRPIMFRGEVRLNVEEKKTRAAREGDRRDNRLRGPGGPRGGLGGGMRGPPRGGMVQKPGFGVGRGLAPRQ
Constant ends, left off below: GGGAGUUCUACAGUCCGACGAUC … UGGAAUUCUCGGGUGUCAAGG
GUCCUGUGCUACACAUCGUAUGUACCGAAUCGGUUUUUUGGGGUUUUUUGGUUUUUUGGAAAGUAUUAUGUUACGCCGUUCGGAUCUGCA: -0.987
UGGCCCUGGUGGCAUGCGGGGAGGAAGAGGUGGCCUCAUGGAUCGUAGUGGUCCCGGUGGAAUGUUCAGAGGUGGCCGUGGUGGAGACAG: 0.675
AGUCCUGUGCUACACAUCGUAUGUACCGAAUCGGGGUGGGGAAAAAGGGGAAAGGGGAAAGUAUUAUGUUACGCCGUUCGGAUCUGCACU: 0.281
AAGUCCUGUGCUACACAUCGUAUGUACCGAAUCGGAAAAAGGAAAAAAAGGAAAGGAAAGUAUUAUGUUACGCCGUUCGGAUCUGCACUU: -0.989
CUGUGCUACACAUCGUAUGUACCGAAUCGGGGAAAAAAAGGAAAAAAAGGAAAAAAAGGGGAAAGUAUUAUGUUACGCCGUUCGGAUCUG: 0.0814
UCCUGUGCUACACAUCGUAUGUACCGAAUCGGGGCCCCCCGGCCCCCCGGGGCCCCCCGGAAAGUAUUAUGUUACGCCGUUCGGAUCUGC: 0.453
CAAGUCCUGUGCUACACAUCGUAUGUACCGAAUCGGUUUUUGGUUUGGUUUUUGGAAAGUAUUAUGUUACGCCGUUCGGAUCUGCACUUC: -1.26
AUUAAGGUCACCGUUGCAGGCCUGGCUGGAAAAGACCCAGUACAGUGUAGCCGUGAUGUGGUCAUUUGUCCUGAUGCCAGCCUUGAAGAU: -1.56

Study 4 — effect on: enzyme activity; mode: inhibitor; concentration: 0.5 µM; baseline: control; endpoint: remaining activity
Target: Tyrosine-protein kinase SYK (SYK, Homo sapiens, UniProt P43405)
COc1cc2ncnc(Nc3ccc(F)c(Cl)c3)c2cc1OCCCN1CCOCC1: 104%
Nc1ccc2ncnc(NCCc3ccc(Oc4ccccc4)cc3)c2c1: 102%
Cn1sc(=O)n(Cc2ccccc2)c1=O: 92.2%
Cc1ccc(NC(=O)c2ccc(CN3CCN(C)CC3)cc2)cc1Nc1nc(-c2cccnc2)cs1: 101%
OCC(O)CCON=C1C(c2c(O)[nH]c3ccccc23)=Nc2ccccc21 (stereo not drawn): 38.6%
N#CC(C#N)=C(N)/C(C#N)=C/c1ccc(O)cc1: 101%
COc1ccc(C(=O)Nc2sc3c(c2C(N)=O)CCCC3)cc1OC: 91.2%
CC(C)[C@H](CO)Nc1nc(Nc2cc(N)cc(Cl)c2)c2ncn(C(C)C)c2n1: 81.1%
O=S(=O)(c1cccc2cnccc12)N1CCCNCC1: 84.3%
O=C(Nc1cccc(Nc2cc(Nc3cccc(C(F)(F)F)c3)ncn2)c1)C1CC1: 94.9%
NCCNc1ncc(C(N)=O)c(Nc2cccc(C(F)(F)F)c2)n1: 15.6%
C#Cc1cccc(Nc2ncnc3cc(OCCOC)c(OCCOC)cc23)c1: 108%
O=C1NC(=O)C(c2cn(CCCn3ccnc3)c3ccccc23)=C1Nc1ccccc1: 99.9%
O=C(O)c1ccc2c3c1cccc3c(=O)n1c3ccccc3nc21: 96%
COc1cc2nccc(Oc3ccc(NC(=S)NC(=O)c4ccccc4C)cc3)c2cc1OC: 95.5%
Cn1c2ccccc2c2c3c(c4c5ccccc5n(CCC#N)c4c21)CNC3=O: 14.6%
